Measurements of several laboratories.
Numbers after ± are the reported error.
Chain of UniProt Q12809 (whole entry, looked up): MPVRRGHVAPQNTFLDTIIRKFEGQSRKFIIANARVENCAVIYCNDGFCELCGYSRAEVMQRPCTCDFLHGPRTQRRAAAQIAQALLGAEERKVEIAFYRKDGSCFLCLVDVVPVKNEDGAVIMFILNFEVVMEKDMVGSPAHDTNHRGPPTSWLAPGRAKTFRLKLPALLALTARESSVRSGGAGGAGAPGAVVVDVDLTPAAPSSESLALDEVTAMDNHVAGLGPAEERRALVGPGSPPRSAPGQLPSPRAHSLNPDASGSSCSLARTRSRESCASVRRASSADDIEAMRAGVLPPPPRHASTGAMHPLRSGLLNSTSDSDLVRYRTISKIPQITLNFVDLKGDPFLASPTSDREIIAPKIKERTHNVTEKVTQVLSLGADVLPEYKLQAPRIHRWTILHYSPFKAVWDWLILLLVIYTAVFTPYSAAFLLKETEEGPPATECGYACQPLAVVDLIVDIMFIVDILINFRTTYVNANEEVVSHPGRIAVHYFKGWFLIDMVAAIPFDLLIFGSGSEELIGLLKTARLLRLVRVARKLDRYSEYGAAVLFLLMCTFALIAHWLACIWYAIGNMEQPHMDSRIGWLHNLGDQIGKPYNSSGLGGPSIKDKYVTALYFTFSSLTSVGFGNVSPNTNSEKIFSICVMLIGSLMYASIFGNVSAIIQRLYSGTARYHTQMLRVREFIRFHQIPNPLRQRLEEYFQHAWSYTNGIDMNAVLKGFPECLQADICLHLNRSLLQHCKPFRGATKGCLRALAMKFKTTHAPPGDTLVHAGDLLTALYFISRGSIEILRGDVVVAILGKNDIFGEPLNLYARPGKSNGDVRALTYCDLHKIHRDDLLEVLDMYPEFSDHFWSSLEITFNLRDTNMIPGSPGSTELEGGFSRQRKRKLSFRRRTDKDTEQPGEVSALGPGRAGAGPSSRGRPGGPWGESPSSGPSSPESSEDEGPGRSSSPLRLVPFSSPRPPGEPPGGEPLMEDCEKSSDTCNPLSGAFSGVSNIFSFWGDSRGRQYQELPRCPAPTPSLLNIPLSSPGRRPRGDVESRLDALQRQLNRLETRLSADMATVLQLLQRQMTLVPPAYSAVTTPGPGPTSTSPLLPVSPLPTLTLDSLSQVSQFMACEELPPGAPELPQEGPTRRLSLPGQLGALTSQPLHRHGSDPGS
Chain of UniProt P05177 (whole entry, looked up): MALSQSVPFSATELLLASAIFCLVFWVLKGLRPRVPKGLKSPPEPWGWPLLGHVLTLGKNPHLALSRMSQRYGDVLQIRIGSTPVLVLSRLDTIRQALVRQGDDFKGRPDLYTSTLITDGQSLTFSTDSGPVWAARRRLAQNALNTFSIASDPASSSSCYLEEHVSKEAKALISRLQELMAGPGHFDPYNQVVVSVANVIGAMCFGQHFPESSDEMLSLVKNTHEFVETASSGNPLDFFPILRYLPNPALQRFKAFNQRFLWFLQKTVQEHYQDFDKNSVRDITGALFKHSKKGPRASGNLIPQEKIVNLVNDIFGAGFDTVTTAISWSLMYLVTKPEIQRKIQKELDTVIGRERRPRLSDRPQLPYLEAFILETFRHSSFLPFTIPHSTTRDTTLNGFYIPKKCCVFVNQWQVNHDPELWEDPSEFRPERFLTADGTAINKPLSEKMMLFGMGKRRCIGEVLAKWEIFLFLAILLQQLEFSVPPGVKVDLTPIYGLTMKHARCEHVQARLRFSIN

| SMILES | target or system | assay | test system | setting | scale | endpoint | result |
| --- | --- | --- | --- | --- | --- | --- | --- |
| COc1cc2c(Oc3ccc4[nH]c(C)cc4c3F)ccnc2cc1OCC1(N)CC1 |  |  | paediatric recurrent refractory sarcoma | 10 mg |  | grade 3 AST elevation | 0% |
| OCc1ncc2n1-c1ccc(Cl)cc1C(c1ccccc1F)=NC2 |  |  | human, plasma | 7.5 mg midazolam, day 1, geometric mean, metabolite of midazolam, with: midazolam 7.5 mg alone |  | half-life | 3.8 h |
| CN1CC[C@@H](c2c(O)cc(O)c3c(=O)cc(-c4ccc(C(F)(F)F)cc4Cl)oc23)[C@@H]1CO |  | measured: Dizziness | B-cell malignancies or AML | oral, 50 mg, continuous dosing |  | patients with adverse event | 12.5% |
| CCCCCCCC(=O)N[C@@H](CCCNC(=N)N)C(=O)N[C@@H](CCCNC(=N)N)C(=O)N[C@@H](CCCNC(=N)N)C(=O)N[C@@H](CCCNC(=N)N)C(=O)N[C@H](C(=O)N[C@@H](CC(C)C)C(=O)N[C@H](C(=O)N[C@@H](CCCCN)C(=O)N[C@@H](CCCCN)C(=O)N[C@H](C(=O)N[C@@H](CC(C)C)C(=O)N[C@@H](CCCCN)C(=O)N[C@@H](CC(C)C)C(=O)N[C@@H](CCCCN)C(=O)N[C@@H](CO)C(=O)N[C@@H](CO)C(=O)N[C@@H](C)C(=O)N[C@@H](Cc1ccc(O)cc1)C(N)=O)C(C)C)[C@@H](C)CC)[C@@H](C)CC | human erythrocytes |  |  | 400 µM, 1 h | baseline: Triton X-100 | hemolysis | 12% |
| COc1cccc(-c2n[nH]c(SCc3ccccn3)n2)c1OC | Salmonella typhimurium | Ames test, plate incorporation | TA1535 | 0.25 mg/plate, with rat liver S9 |  | revertant colonies per plate | 16 |
| COc1ncnn2ccc(-c3cnc4nc(C)n(Cc5nnc([C@@H](C)F)o5)c4c3)c12 |  |  | human | oral, dose not given, grade 2 |  | patients with fatigue | 7.1% |
| CC[C@H](C)[C@H](N)C(=O)N[C@@H](CO)C(=O)N[C@@H](Cc1ccccc1)C(=O)N[C@@H](CC(C)C)C(=O)NCC(=O)N[C@@H](CO)C(=O)N[C@@H](CCCCN)C(=O)N[C@H](C(=O)N[C@H](C(=O)N[C@H](C(=O)N[C@@H](CC(C)C)C(=O)N[C@@H](CC(C)C)C(=O)N[C@@H](CCCCN)C(=O)N[C@@H](CCCNC(=N)N)C(=O)N[C@@H](CCCNC(=N)N)C(=O)N[C@@H](CCCCN)C(=O)N[C@@H](CCCNC(=N)N)C(=O)N[C@@H](CCCCN)C(=O)N[C@@H](CCCNC(=N)N)C(=O)N[C@@H](CCCCN)C(N)=O)C(C)C)C(C)C)C(C)C | human erythrocytes |  |  | 400 µM, 1 h | baseline: Triton X-100 | hemolysis | 17% |
| O=c1ccc2ccccc2o1 | HepG2 | measured: steatosis |  | concentration not given, 24 h, phospholipidosis and steatosis panel |  | probability of response | 37.9% |
| Cc1cc(C(=O)NC(C)(C)COc2cccc3c2C(N)=NS(=O)(=O)N3)cc(C)n1 | Salmonella typhimurium | Ames test, confirmatory | TA98 | 333 µg/plate | baseline: solvent control | revertant ratio | 0.7 |
| O=S(=O)(Nc1ccccc1)c1ccc(NC(=S)Nc2ccccc2)cc1 |  | measured: Glu | male mouse, blood | oral, 5 mg/kg daily, 14 days |  | blood chemistry level | 226 mg/dL |
| CCN(CC)C(=O)[C@@H]1C=C2c3cccc4[nH]cc(c34)C[C@H]2N(C)C1 |  | measured: lack of energy | healthy volunteers | dose not given, 12 to 24 h | baseline: placebo, direction not given | List of Complaints score | 3 |
| CC(C)CC(=O)OC[C@H]1O[C@@](C#N)(c2ccc3c(N)ncnn23)[C@H](O)[C@@H]1O | Cytochrome P450 1A2 (CYP1A2, Homo sapiens, UniProt P05177) | metabolic stability | recombinant enzyme | 1 µM |  | intrinsic clearance | < 0.0559 µL/min/pmol |
| CC[C@H](C)[C@H](NC(=O)[C@H](CC(C)C)NC(=O)[C@@H](NC(=O)[C@@H](NC(=O)[C@@H](NC(=O)[C@H](CCCNC(=N)N)NC(=O)[C@H](CCCNC(=N)N)NC(=O)[C@H](CCCNC(=N)N)NC(=O)[C@@H](N)CCCNC(=N)N)C(C)C)[C@@H](C)CC)[C@@H](C)CC)C(=O)N[C@H](C(=O)N[C@@H](CC(C)C)C(=O)N[C@@H](CCCNC(=N)N)C(=O)N[C@@H](CCCNC(=N)N)C(=O)N[C@@H](CCCNC(=N)N)C(=O)N[C@@H](CCCNC(=N)N)C(=O)N[C@@H](Cc1ccccc1)C(=O)N[C@@H](CO)C(=O)N[C@@H](C)C(=O)N[C@@H](Cc1ccc(O)cc1)C(N)=O)C(C)C | human erythrocytes |  |  | 400 µM, 1 h | baseline: Triton X-100 | hemolysis | 19% |
| CN[C@@]1(c2ccccc2Cl)CCCCC1=O | Voltage-gated inwardly rectifying potassium channel KCNH2 (KCNH2, Homo sapiens, UniProt Q12809) | radioligand binding, radioligand displacement |  | 30 µM |  | inhibition | 11% |
| CC[C@H](C)[C@H](NC(=O)[C@H](CCCNC(=N)N)NC(=O)[C@H](CCCNC(=N)N)NC(=O)[C@@H](N)CCCNC(=N)N)C(=O)N[C@@H](CO)C(=O)N[C@@H](Cc1ccccc1)C(=O)N[C@@H](CC(C)C)C(=O)NCC(=O)N[C@@H](CO)C(=O)N[C@@H](CCCCN)C(=O)N[C@H](C(=O)N[C@H](C(=O)N[C@H](C(=O)N[C@@H](CC(C)C)C(=O)N[C@@H](CC(C)C)C(=O)N[C@@H](CCCCN)C(=O)N[C@@H](CCCNC(=N)N)C(=O)N[C@@H](CCCNC(=N)N)C(=O)N[C@@H](CCCNC(=N)N)C(=O)N[C@@H](CCCNC(=N)N)C(N)=O)C(C)C)C(C)C)C(C)C | human erythrocytes |  |  | 400 µM, 1 h | baseline: Triton X-100 | hemolysis | 13% |
| CO[C@H]1C[C@@H]2CC[C@@H](C)[C@@](O)(O2)C(=O)C(=O)N2CCCC[C@H]2C(=O)O[C@H]([C@H](C)C[C@@H]2CC[C@@H](OC(=O)NCCOCCOCCOCCOCCOCCOCCOCCOCCC(=O)N3CCc4cc(Cn5nc(-c6ccc7oc(N)nc7c6)c6c(N)ncnc65)ccc4C3)[C@H](OC)C2)C[C@@H](O)[C@H](C)/C=C(\C)[C@@H](O)[C@@H](OC)C(=O)[C@H](C)C[C@H](C)/C=C/C=C/C=C/1C |  |  | patients with advanced solid tumours | intravenous, 12 mg weekly, grade 3 or higher |  | abdominal pain incidence | 8.3% |
| CC[C@H](C)[C@H](NC(=O)[C@H](C)NC(=O)[C@H](CCCNC(=N)N)NC(=O)[C@H](CCCNC(=N)N)NC(=O)[C@@H](N)CCCNC(=N)N)C(=O)N[C@@H](CO)C(=O)NCC(=O)N[C@@H](CO)C(=O)N[C@@H](CC(C)C)C(=O)N[C@H](C(=O)N[C@H](C(=O)N[C@@H](CC(C)C)C(=O)N[C@@H](CCCNC(=N)N)C(=O)N[C@@H](CCCNC(=N)N)C(=O)N[C@@H](CCCNC(=N)N)C(N)=O)[C@@H](C)O)C(C)C | human erythrocytes |  |  | 400 µM, 1 h | baseline: Triton X-100 | hemolysis | 5% |
| [Cl-].[Cl-].[Pt+2].[Ru+2].c1ccc(-c2nc3ccccc3nc2-c2ccccn2)nc1.c1cnc2c(c1)ccc1cccnc12.c1cnc2c(c1)ccc1cccnc12 | Danio rerio |  | embryos | 75 µM, 12 h |  | survival rate | 73.3 ± 2.2% |
